Measured values from different studies.
Protocols differ between the studies behind these lines. “And” joins repeats or separate records; there may be more than shown. ± marks the error that the study gave.

`Cn1cc(-c2nc(N[C@@H]3CCCC[C@@H]3N)c(F)c3c2C(=O)NC3)cn1` — result for “hemorrhagic adverse events”: 25% (measured: Hematochezia; patients with relapsed or refractory AML; oral, 120 mg once daily).
For `Oc1ccc(Cl)c(-c2ccc(Cl)cc2Cl)c1Cl`, the enantiomeric fraction was 0.49 (enantioselective gas chromatography; racemized sample; column temperature 145 °C).
`Cn1ncc(-c2nc(N[C@H]3CC[C@H](N)CC3)ncc2Cl)c1CC1CC1` has a pyrexia incidence of 33% (phase I dose escalation; human patients; dose not given, any-grade TEAE).
For `N[C@@H](Cc1ccc(O)c(O)c1)C(=O)O`, the Ctrough ratio was 1.95 (human, plasma; oral, dose not given, carbidopa/levodopa every 3 h, with: opicapone; relative to: after over before opicapone).
Under “patients with TEAE”, `C=CCNc1c(O)cc2c(O)c1C[C@@H](C)C[C@H](OC)[C@H](O)[C@@H](C)/C=C(\C)[C@H](OC(N)=O)[C@@H](OC)/C=C\C=C(/C)C(=O)N2` is recorded as 28% (measured: Myalgia; unresectable or metastatic GIST/STS; intravenous, dose not given, all doses).
With `CNC(=O)c1cc(Oc2ccc(NC(=O)Nc3cc(C(C)(C)C)nn3-c3ccc4ncccc4c3)c(F)c2)ccn1` the related SAE was 32% (any related SAE, NCI CTC v3.0; human patients; oral, all dose levels).
`CCCCCCCCCCCCCCCC(=O)N[C@@H](CCC(=O)NCCCC[C@H](NC(=O)[C@H](CC(=O)O)NC(=O)[C@H](CO)NC(=O)[C@@H](NC(=O)[C@H](Cc1ccccc1)NC(=O)[C@@H](NC(=O)CNC(=O)[C@H](CCC(N)=O)NC(=O)[C@H](CO)NC(=O)[C@@H](N)Cc1c[nH]cn1)[C@@H](C)O)[C@@H](C)O)C(=O)N[C@@H](CO)C(=O)N[C@@H](CCC(=O)O)C(=O)N[C@@H](Cc1ccc(O)cc1)C(=O)N[C@@H](CC(C)C)C(=O)N[C@@H](CC(=O)O)C(=O)N[C@@H](CO)C(=O)N[C@@H](CCC(=O)O)C(=O)N[C@@H](CCCNC(=N)N)C(=O)N[C@@H](C)C(=O)N[C@@H](CCCNC(=N)N)C(=O)N[C@@H](CC(=O)O)C(=O)N[C@@H](Cc1ccccc1)C(=O)N[C@H](C(=O)N[C@@H](C)C(=O)N[C@@H](Cc1c[nH]c2ccccc12)C(=O)N[C@@H](CC(C)C)C(=O)N[C@@H](CCC(=O)O)C(=O)N[C@@H](C)C(=O)NCC(=O)NCC(=O)O)C(C)C)C(=O)O` — result for “treatment-related adverse events”: 0% (measured: Dizziness; humans CrCl at least 90 mL/min; subcutaneous, 100 µg single dose).
Under “QTcI change from baseline”, `NCCCC[C@@H]1NC(=O)[C@@H](Cc2c[nH]c3ccccc23)NC(=O)[C@H](c2ccccc2)NC(=O)[C@@H]2C[C@@H](OC(=O)NCCN)CN2C(=O)[C@H](Cc2ccccc2)NC(=O)[C@H](Cc2ccc(OCc3ccccc3)cc2)NC1=O` is recorded as -2.5 ms (healthy volunteers; subcutaneous, 600 µg twice daily, day 5, 8.00 h).
`CC(C)C[C@H](NC(=O)[C@H](CCCCN)NC(=O)OCC1c2ccccc2-c2ccccc21)C(=O)N[C@H](C(=O)N[C@@H](Cc1ccccc1)C(=O)N[C@@H](Cc1ccccc1)C(=O)N[C@@H](CCCCN)C(=O)NCC(=O)N[C@@H](Cc1ccccc1)C(=O)N[C@@H](C)C(=O)N[C@@H](Cc1c[nH]c2ccccc12)C(=O)N[C@@H](CC(N)=O)C(=O)N[C@H](C(=O)N[C@H]1CSSC[C@@H](C(=O)N[C@@H](Cc2c[nH]cn2)C(=O)N[C@@H](CCCNC(=N)N)C(=O)N[C@@H](CCCNC(=N)N)C(=O)N[C@@H](C)C(=O)N[C@@H](CC(N)=O)C(N)=O)NC(=O)[C@H](C(C)C)NC(=O)[C@H](CCCNC(=N)N)NC(=O)[C@H](C(C)C)NC(=O)CNC(=O)[C@H](CC(N)=O)NC(=O)[C@H](CCCNC(=N)N)NC(=O)[C@H](Cc2ccc(O)cc2)NC(=O)[C@H](C(C)C)NC1=O)C(C)C)C(C)C` gave a calcium of 1.39 ± 0.04 mmol/L (ICR mice, serum; intraperitoneal, 5 mg/kg, day 5).
`CC[C@H](C)[C@@H]1NC(=O)[C@@H]2CSSC[C@H](NC(=O)[C@H](CCCNC(=N)N)NC(=O)[C@@H]3CSSC[C@H](NC1=O)C(=O)N[C@@H]([C@@H](C)O)C(=O)N[C@@H](CCCNC(=N)N)C(=O)NCC(=O)N[C@@H](Cc1ccccc1)C(=O)N3)C(=O)N[C@@H](CC(C)C)C(=O)N[C@H]1CSSC[C@H](NC(=O)[C@H](C(C)C)NC(=O)CNC(=O)[C@H](CCCNC(=N)N)NC(=O)[C@H](CCCNC(=N)N)NC1=O)C(=O)N[C@@H](CCCNC(=N)N)C(=O)N2`: “increased vein intima score” 1 to 2 (Sprague-Dawley rats, female, lung; 5 mg/kg; direction not given).
`O=C(Nc1ccccc1)C1CCN(C(=O)Oc2cccnc2)CC1` — result for “adverse event Lethargy”: 28.6% (healthy women; oral, 60 mg, 7 days).
`C[C@@H](NC(=O)N1C(=O)[C@H](Cc2ccnc(N)c2)[C@H]1C(=O)O)C1CCCCC1` — result for “incidence of AEs excluding prolonged aPTT”: 50% (healthy adult Chinese volunteers; continuous intravenous infusion, 0.3 mg/kg/h, 5-day infusion, CTCAE 5.0 grading).
`CC(C)[C@H](C(=O)O[C@H](C#N)c1cccc(Oc2ccccc2)c1)c1ccc(Cl)cc1`: “enzyme contribution to clearance” 19.4% (measured: CYP2C9; human, age 5 years).
Under “subjects with drug-related dysgeusia”, `C[C@]1(CO)Cc2ncn(-c3ccc(C#N)c(Cl)c3)c2C(=O)O1` is recorded as 0% (human; 40 mg single dose).
`CCc1ccc(CC/C=C/c2ccc3c(c2)C(=O)CC3)cc1` has an Albumin of 33.6 g/L (Sprague-Dawley rat, male; oral, 30 mg/kg/day, 14 days).
For `CC(=O)c1c(C)c2cnc(Nc3ccc(C4CCN(CCS(C)(=O)=O)CC4)cn3)nc2n(C2CCCC2)c1=O`, the Cmax was 75.6 ng/mL (human, dose-escalation trial, plasma; oral, 25 mg twice daily, day 1, single dose).
`CC(C)c1nc(N(C)S(C)(=O)=O)nc(-c2ccc(F)cc2)c1/C=C/[C@@H](O)C[C@@H](O)CC(=O)O` — result for “incidence of neck pain”: 0% (healthy human subjects; oral, dose not given, study CL-0537 safety set).
With `CO[C@H]1C[C@@H]2CC[C@@H](C)[C@@](O)(O2)C(=O)C(=O)N2CCCC[C@H]2C(=O)O[C@H]([C@H](C)C[C@@H]2CC[C@@H](OC(=O)NCCOCCOCCOCCOCCOCCOCCOCCOCCC(=O)N3CCc4cc(Cn5nc(-c6ccc7oc(N)nc7c6)c6c(N)ncnc65)ccc4C3)[C@H](OC)C2)C[C@@H](O)[C@H](C)/C=C(\C)[C@@H](O)[C@@H](OC)C(=O)[C@H](C)C[C@H](C)/C=C/C=C/C=C/1C` the TRAE incidence was 18.8% (phase 1 dose escalation, measured: headache; advanced solid tumour patients; intravenous, 8 mg weekly, any grade).
Under “incidence of blood creatine phosphokinase increased”, `C=CC(=O)Nc1cc(Nc2nccc(Nc3cc(Cl)c(F)cc3C(C)(C)O)n2)c(OC)cc1N1CC[C@@H](N(C)C)C1` is recorded as 17.6% (treatment-emergent adverse events; human; oral, 300 mg, phase I clinical trial).
For `COc1ncccc1-c1cnn2ccc(N3CCN(C(=O)OC(C)C)CC3)nc12`, the drug concentration was 950 nM (rat, STZ model, brain; oral, 3 mg/kg, 240 min).
Under “patients with blurred vision”, `O=C1Nc2cc3[nH]nc(-c4ccncc4)c3cc2CN1Cc1ccccc1` is recorded as 40% (CTCAE v4.03; advanced solid tumour patients; intravenous, 7.2 mg/kg, schedules 1/2).
`O=C(O)CCCOc1ccc(F)cc1-c1cc(-c2ccccc2C(F)(F)F)n(-c2ccccc2)n1` has an organ weight of 11.4 ± 0.62 g (male Crl:CD(SD) rats, liver; intravenous, 25 µg/kg, 14 d).
`Cn1cncc1-c1c(F)cncc1NC(=O)c1c(N)nn2cc(F)cnc12`: “grade ≥3 lymphocyte decrease incidence” 50% (human patients; oral, 270 mg once daily).
`Nc1nc2cc(-c3ccc4ncc(C(=O)N5CCOCC5)n4c3)ccc2o1` — result for “respiratory failure adverse events”: 6% (human, advanced solid tumours).
For `CN(C(=O)n1cnc(-c2ccc[n+]([O-])c2)c1)C1CCCCC1`, the concentration was 8.1 ± 0.3 ng/g (Wistar rat, cerebral cortex; oral, 10 mg/kg/day, 24 h, repeated 5 days).
`COc1cc2c(cc1OC)CN(CCc1ccc(NC(=O)c3cccc4c(=O)c5cccc(OC)c5[nH]c34)cc1)CC2` has an AUC(0-inf) of 23300 ng·h/mL (CD-1 mouse, male, plasma; intraperitoneal, 30 mg/kg).
`CN1CCN(S(=O)(=O)c2cc([N+](=O)[O-])ccc2N(CCOS(C)(=O)=O)CCOS(C)(=O)=O)CC1` gave an ALT of 32 U/L (naive NOD/SCID mice, pooled blood; intraperitoneal, 18.8 mg/kg, week 4).
Under “grade 1 or 2 Vomiting”, `COc1cc2c(Oc3ccc4[nH]c(C)cc4c3F)ccnc2cc1OCC1(N)CC1` is recorded as 0% (paediatric recurrent refractory sarcoma; 8 mg).
The bilirubin of `CCCCCOc1ccc(-c2ccc(-c3ccc(C(=O)N[C@H]4C[C@@H](O)[C@@H](OCC[N+](C)(C)C)NC(=O)[C@@H]5[C@@H](O)[C@@H](C)CN5C(=O)[C@H]([C@@H](C)O)NC(=O)[C@H]([C@H](O)[C@@H](O)c5ccc(O)cc5)NC(=O)[C@@H]5C[C@@H](O)CN5C(=O)[C@H]([C@@H](C)O)NC4=O)cc3)cc2)cc1` is reported as 12.2 µmol/L (adult ICU patients, mITT, serum; dose not given, Follow-up).
`CCc1cc(C(=O)NC)c2nccc(N3CCc4c(cc(Cn5ccnc5)cc4-c4cn(C)nc4C(F)(F)F)C3=O)c2c1` has an AUC extrapolated of 0% (Sprague Dawley rats, male, bile duct-cannulated, plasma; oral, 50 mg/kg).
With `COc1cccc(Oc2ccccc2NC(=O)CNC(=O)c2cccc3ccccc23)c1` the serum phosphorus was 9.7 mg/dL and 10.9 mg/dL and 12.1 mg/dL (esterase-deficient SCID mice, male; oral, 15 mg/kg/day, 14 days, toxicity study).
Under “relative organ weight”, `O=S(=O)(Nc1ccccc1)c1ccc(NC(=S)Nc2ccccc2)cc1` is recorded as 5.62% (mouse, male, liver; oral, 80 mg/kg daily, 14 days; relative to: body weight).
`CC(C)[C@H](O)C(=O)N[C@H]1Cc2ccc3c(c2)[C@]2(C4=C(c5nc(CO)co5)N=C(O4)[C@H](C(C)(C)C)NC1=O)c1cc(F)ccc1N[C@@H]2O3` gave an AUC(0-t) of 1210 ng·h/mL (NSG mice, heart; intravenous, 10 mg/kg, single dose at MTD, with: paclitaxel 40 mg/kg).
